# Experimental data collected from several papers.
# A part holds a random share of what one study measured. Substitutions count along the parent as printed.

# Block 1 — target: CCND3, cyclin fold, Cln2 fusion (human); method: yeast growth competition, sequencing; medium: yeast; setting: weak parent motif; relative to: not given; reading: higher = stronger binding; parent: viral docking peptide; KGVKRKLFAEDSS
Substitution,normalised enrichment score
KGVKRGLFAEDSS [K6G],0.347
KGVKRKLFAETSS [D11T],-0.016
KGVGRKLFAEDSS [K4G],0.277
KGVKRKLAAEDSS [F8A],0.209
KGVKRKLKAEDSS [F8K],0.335
KGVKRVLFAEDSS [K6V],0.104
KGVKRILFAEDSS [K6I],-0.0915
KGVKLKLFAEDSS [R5L],-0.298

# Block 2 — read-out: peptide-MHC binding; molecule type: peptide; concentration: concentration not given
# Target: HLA class I histocompatibility antigen, A alpha chain, allele A*25:01 (Homo sapiens, UniProt P04439)
Sequence,binding
FWAWSVLRV,inactive
RIEQLYPFA,inactive
WKAIGAYIL,inactive
DTVNRTHQY,active
SAYYLDIGF,inactive
DMYFCHFYK,inactive
SIYYTLVRM,inactive
RTFSILNRK,inactive

# Block 3 — read-out: cell-free assay; concentration: 10 µM
# Target: Sodium-dependent serotonin transporter (SLC6A4, Homo sapiens, UniProt P31645)
Structure (SMILES),inhibition [%]
CC1=C(C#N)C(c2ccc3[nH]nc(C)c3c2)C(C#N)=C(C)N1,-3.41
Cn1nc(C(F)(F)F)cc1-c1cnc(N2CCc3cc(S(=O)(=O)Nc4c(F)cc(Cl)cc4F)cc(N4CCCC4=O)c32)nc1,0.95
Nc1nc(NCc2ccccc2)nc(-c2cccc(CO)c2)n1,9.44
COCCOc1nc(-c2ccc(Cl)nc2)nc2c1CN(C(=O)c1ncn3ccccc13)CC2,2.72
Cc1noc([C@H]2C[C@@H](c3ccc(C(F)(F)F)cc3)CN(C(=O)N3CCS(=O)(=O)C3)C2)n1,5.57
C[C@H](c1ccc(F)cc1)N(Cc1cccc(C(=O)O)c1)C(=O)c1cnc2ccccc2c1,23.4
C[C@H](c1ccc(F)cc1)N(Cc1ccc(Cl)c(C(=O)O)c1)C(=O)c1cnc2ccccc2c1,-2.63
NC(=O)c1ccc2nc(-c3ccc(C4(N)CCC4)cc3)c(-c3ccccc3)n2n1,14.8
Cn1cc(Cl)c2c(Oc3c(F)cc(Nc4cc(Cl)nc(N)n4)cc3F)ccnc21,-5.34
CN1CCN(c2ccnc(NCCc3ccccc3)n2)CC1,35.8
Cn1nc(C(=O)NCc2ccc(C(=O)O)cc2)cc1-c1ccc2[nH]ccc2c1,5.3
N#CC1(c2ccccn2)CCN(Cc2cc(C(=O)O)c(=O)n3ccccc23)CC1,19
CN(C)c1ncnc(-c2ccc3nc(Nc4cc(CN5CCN(C(=O)CC(F)(F)F)CC5)ccn4)[nH]c3c2)c1Cl,9.9
Nc1nc(NCc2ccccc2)nc(-c2ccccc2CO)n1,4.96
CS(=O)(=O)N1CCCC(NC(=O)[C@H](CCC2CCCCC2)NC(=O)c2ccc(CNC(=O)c3cnc4ccccn34)cc2)C1 (stereo partly drawn),19.8

# Further values, each from its own experiment — cell line: HEK-293T-ACE2-TMPRSS2; method: cell count; concentration: 10 µM
SMILES,viability
CC(=O)c1cc2cc3c4c(c2oc1=O)CCCN4CCC3,132%
CCn1ccnc1Cn1cnc(-c2ccccc2)c1-c1c(OC)cccc1OC,74%

# Excerpt of the above (block 1):
Substitution,normalised enrichment score
KGVKRVLFAEDSS [K6V],0.104
KGVKRILFAEDSS [K6I],-0.0915
KGVKLKLFAEDSS [R5L],-0.298
